Measurements collected from several papers.
A part holds a random share of what one study measured. Substitutions count along the parent as printed.

Study 1 — method: RNA Bind-n-Seq; form: RNA; medium: in vitro; tested at: 365 nM; baseline: no-protein control; reading: higher = stronger binding; measurement: RBNS enrichment (R)
Target: RNA binding protein fox-1 homolog 2, RRM domain, GST-SBP tag (RBFOX2, Homo sapiens, UniProt O43251-10, residues 100-194)
Setting: natural RNA segment, single round, ends assumed
All sequences stand within: GGGAGUUCUACAGUCCGACGAUC … UGGAAUUCUCGGGUGCCAA
Construct (chain): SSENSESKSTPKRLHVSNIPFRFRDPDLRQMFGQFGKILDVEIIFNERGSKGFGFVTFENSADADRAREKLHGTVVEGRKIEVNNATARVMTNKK
UGGCAUUUGGGGUGACAUCUCAAAGGCCAGGAAUUCCGUUGACUUGUUGGCUGCCAGUAGGGGCGGGAGGAAAGGCGGAGGCGAGCCCUGGAGGAGGGAGGCCACAACUC: 0.532
CAUGUAAGAAUCAGAGCUGCUCCUUCCUGUGAAUCCUAGGUGGCCCUAUGUCUUCUGUGGAGUUACAGUAUAAAGCAGGGAGCUAAUUAAGAGUAUUAAAACUUAAAACC: 0.381
CAUUUUGCUACCAGUUUCAUUGAAUUGAUUUAAAAAUAAAUAAAUAAUAAAAUUAUUUCUGAUGAUGAAAAUUCCUUGUUUUUUUUUUUAAUAACAGAACUUUGGACAAA: 1.16
UGCUAGUGCUGACGAUGUUCUGUACAACUUAACUCACUGGCGAGAAUACAGCGUGGGACCCUUCAGCCACUACAACAGAAUUUUUUAAAUUGACAGUUGCAGAAUUGUGG: 0.502
GGACUCUCCUUUCCCUUUGUUAGUGUCCUGGGUUCCCAUGGACUCAGGGAUUUGUUGGCUAAGGUUUCUCUGUGCAUAUAUAUAUAUAUACAUAUGUAUAUAUAUUUAAA: 0.796
CAGGUGGAGCUGACCCUCGUCUUUGUGGCAGCAAAACCAGGAUGCCUGGAGCUGUGGCCUGAGGGCCUGCUGGGGUCCCACUCACCCACUUAGGUCUAGUCGCUAGAUCC: 0.273
UGCUCCCAGCCACACUACCAUCCCAAGUCCCUUGCGGCCCUCUCUGUCUUCCUCAUUGCACUGCAAUGGGCAGGGGUAGGAGAUUGGAGAUAAGGAUGAAGGGGGAGGAA: 0.433
GGCAGAGGCAACAGUGUUUAGGAUUUGGGUUAUCAUAAGGUGUUAAGAGUCCCUUGUUAAAGGGGCAGUGGGAGUUAUGGGGUCAUCAAGGACCUUGCCUCUCUGGAAUC: 1.02
UCCAUCCAUCCAUUCAUCCAUCCCCAGUGUUCCAUGUGUCACCUUCUCCUUUUCCAGCAUCCCUAUCCUAUGGUGCUUUGGUGGUGAACUAUGGCAGUCCUGACUUGCUG: 1.19
UGACUCCUGAAGCAUCAGCCCUUGUCAUACUGUAUUGACUGUGUACGUGCCUUUCACCUUGAGCAUGCUUCAGGAUUUUUUUUUAAACCACAGAACUUGAAUACAUGAGG: 16.3
UGGAGGGGAAUCGGUUCAUCAAUUUUCACUUGCUUAAAAAAAAUACUUUUUCUUAAAGCACCCGUUCACCUUCUUGGUUGAAGUUGUGUUAACAAUGCAGUAGCCAGCAC: 0.569
GGGUAGGGGAUCUGCUUCCCACUGUGACUGGGCUAUGGGAUUCUGACUACCUUGCUUACAGAUUCAUGGUUUGAUAAAUUUGUUGUAUUCAAAAACUUGAAAUGCAGGAC: 0.367

Study 2 — method: RNA Bind-n-Seq; form: RNA; medium: in vitro; tested at: 100 nM; baseline: input RNA pool; reading: higher = stronger binding; measurement: bound/input enrichment
Target: RING finger protein unkempt homolog, zinc fingers 1-6, SBP tag (UNK, Homo sapiens, UniProt Q9C0B0, residues 30-357)
UniProt Q9C0B0, sequence (30-357, looked up): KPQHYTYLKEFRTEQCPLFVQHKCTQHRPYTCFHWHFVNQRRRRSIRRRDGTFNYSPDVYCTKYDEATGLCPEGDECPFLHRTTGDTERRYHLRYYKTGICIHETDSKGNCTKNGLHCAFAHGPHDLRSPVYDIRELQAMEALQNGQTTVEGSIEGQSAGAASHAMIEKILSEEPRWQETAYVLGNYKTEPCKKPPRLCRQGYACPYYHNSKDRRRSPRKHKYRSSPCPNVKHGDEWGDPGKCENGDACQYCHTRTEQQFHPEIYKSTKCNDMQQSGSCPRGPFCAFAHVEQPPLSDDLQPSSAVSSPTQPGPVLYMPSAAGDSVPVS
Setting: RNA with constant flanks, vertebrate orthologous sites, ends assumed
All sequences stand within: GGGAGUUCUACAGUCCGACGAUC … CAACAGAGGAUUGAGCAUCA
GUAAUGUGUUCUUAUUUAUUGAAAAUAGUUUGUGCUAAGGAUUGUGUUAGAUUUACAAAUUAGUGAAUUGAUUCCUCUUUGUUGUGUUGCUUUUAUUGUUGAAAAUAAAUAGAACUUUGA: 1.27 ratio
GCUGUUAAUGCACUGUUAUACCAGGCAUUGUCUGAAGUUAGUGUAAUCUAGAAGAUUUUAUAGUUUUAUUUUAAUGAAGUAUGGAUUGAAGCAAAGCUGUUAGGAGUAUGUAGUCUUUUA: 3.09 ratio
GGAACAGCAAAUCACUGUGAUAUUUAAAAUAUGCACAGUCCUGAUCUUUCUCCAUGAUCCUAGUAUUUUUCUAGCUGUAUCUUUGUAUCUCAUACUGUUAUUUAUCAGUUUUGUUCCCCU: 0.674 ratio
CCCCGGUUUUAGAUGUGAUAUCUAGGCUUUCAUUCCAGUUUGUUUUGUCUUUUUCUUGUUUAGAUACCACCUUUUAAAUUCUUGCAUUUUAGUAAGAAAGCUACCUUUUUAUGGAUGUUA: 0.869 ratio
CCUCUCACUUAACUGUGUCCAAAAUUGCUGUGAGGGUUGGAAACAUUCAUUAGUUUCUUGUAGAACUACACUGGCAGGUGCUCAAUUGCCAUCAUAGCAAGCAAGAUCAAAUACCAUCAC: 0.992 ratio
AAUAGUUUUAAGCUUGUUUGCACAGUUUUUUUUUUCCAUUGGAGAUGGAAUUCAUUGCCUUAGGUCUUUUUAAUAGUGUAUUGUUAUUGUUGGGCUGGCUCUAUGCUUGAAAACCAGUUU: 2.26 ratio
UAUAAGAACUCUUGCAGUCUUAGAUGUUAUAAAAAUAUGUAUACCAAUUGUAAGAGUUGUUAGCACAGAUUUUUUUCUUUUCUUUUUUUUAAGCACUUGUUUUGGGUACAAGGCAUUUCU: 0.512 ratio
CAUGAUCUUGUUACUGUGAUAUUUUAAAUAUCCACAGUACUCACUUUUUCCAAAUGAUCCUAAUAAUUGCCUAGAAAUAUCUUUCUCUUACCUGUUAUUUAUCAAUUUUUCCCAGUAUUU: 0.793 ratio
UCCCCUGGGCCGGGACAGCCUUUUUUUUUUAAAUGUCUUGAAACCUAAACUCUGUGCUUGUAGAAGACUGUAACCUUUUUUGUCUUUUUUUUUUUUUUUUAAACCAACCUCCACCUCCAG: 2.54 ratio
AAUGACAGCAAAAGAGCCAAGCAGGAGCAUUUGAGUUUCUUUUGUAAAAUGUAAAAUGACUAAAUUUAGACUGUCUCUCCUUGUACAGUUUUAAAAAUAAAUACCUCAGUGCUGUUUUCC: 0.491 ratio
AGCACAGCAAGGAUUCAGAACUGGUUUUACAAAUGUCCCAAGCAGAUAUGGAACAAACACUCGUGGUCAACCUCGACCAUAAUAAACACCAUUAUUUAUUGUACUUAAGGGUAUUGACUU: 0.603 ratio

Study 3 — target: CCND1, cyclin fold, Cln2 fusion (human); method: yeast growth competition, sequencing; medium: yeast; setting: weak parent motif; baseline: not given; reading: higher = stronger binding; measurement: normalised enrichment score
Starting sequence: MASTL docking peptide (human); PMIAKNLMCELDE
PMIAKTLMCELDE [N6T]: 0.0802
PMIAKLLMCELDE [N6L]: -0.325
PMIAKNNMCELDE [L7N]: 0.0849
PMIAKNLMCMLDE [E10M]: 0.0556
PMIAKNLMCILDE [E10I]: 0.183
PMIAQNLMCELDE [K5Q]: 0.258
PMIAKNLMCERDE [L11R]: -0.128
PMIAFNLMCELDE [K5F]: 0.625

Other studies, line by line
PhoQ, residues 284 288 289 292 302 303 NSMLDC — fold induction (PhoP, residues 12 14 15 18 19 TPLRH (Escherichia coli, UniProt P23836); Sort-seq, measured: YFP reporter; E. coli; PhoQ-PhoP variant library, added: 10 µM Mg2+; baseline: high Mg2+ state, higher = stronger signaling): 1.29
